Published values collected from several papers.
Protocols differ between the studies behind these lines. Several values in a cell are separate wells, animals, samples, runs or records. ± marks the error that the study gave. Converted amounts (≈) assume the structure as drawn.

| SMILES | organism | assay | system | setting | scale | measurement | value |
| --- | --- | --- | --- | --- | --- | --- | --- |
| NC(=O)c1ncn([C@@H]2O[C@H](CO)[C@@H](O)[C@H]2O)n1 | lymphocytic choriomeningitis virus | reporter gene | BHK-21 | 100 µM, minigenome, Gaussia luciferase | baseline: DMSO | reporter activity | 23.6% |
| COC1CN(C(=O)c2sc3nc(-c4ccccc4)ccc3c2N)C1 | Mycobacterium tuberculosis | growth inhibition | H37Rv LepB under-expressing |  |  | IC50 | 7.6 ± 3 µM |
| NC(=O)c1cc(-c2ccsc2)cc(F)c1OCCc1cccc(F)c1 | Mycobacterium tuberculosis |  | H37Rv-LP |  | baseline: HepG2 CC50 over Mtb IC90 | selectivity index | 2 |
| COc1ccc(-c2cc(C(F)(F)F)c3c(N)c(C(=O)N4CCC4)sc3n2)cc1 | Mycobacterium tuberculosis |  | H37Rv wild type | 120 h |  | IC90 | inactive |
| COc1ccc(C(=O)Nc2ccccc2C(=O)N[C@H](C(=O)NC2CCCCC2)C(C)C)cc1 | human coronavirus 229E | viral replication, plaque reduction | MRC-5 | 6 days |  | EC50 | > 50 µM |
| Nc1c(C(=O)N2CCOCC2)sc2nc(-c3ccoc3)ccc12 | Mycobacterium tuberculosis | growth inhibition | H37Rv LepB under-expressing |  |  | IC50 | 25 ± 10 µM |
| NC(=O)c1cc(C2CC2)ccc1OCCc1cccc(F)c1 | Mycobacterium tuberculosis | growth | H37Rv-LP | 120 h |  | IC90 | 1.2 ± 0.41 µM |
| COc1ccc(-c2cc(C(F)(F)F)c3c(N)c(C(=O)N4C5CCCC4COC5)sc3n2)cc1 | Mycobacterium tuberculosis | growth inhibition | H37Rv LepB under-expressing |  |  | IC50 | > 100 µM |
| CN(C)[C@@H]1C(O)=C(C(N)=O)C(=O)[C@@]2(O)C(O)=C3C(=O)c4c(O)cccc4[C@@](C)(O)[C@H]3C[C@@H]12 | Burkholderia cepacia |  | 6349 |  |  | MIC | 32 µg/mL (≈ 72 µM) |
| NC(=O)c1cc(-c2cccs2)ccc1OCCc1cccc(F)c1 | Mycobacterium tuberculosis |  | H37Rv-LP |  | baseline: HepG2 CC50 over Mtb IC90 | selectivity index | 65 |
| OC(Cn1cncn1)(Cn1cncn1)c1ccc(F)cc1F | Saccharomyces cerevisiae | cell growth | Pdr5 deleted, empty vector | 2^-2 µg/mL |  | OD600 | 0.981 and 0.962 and 0.99 |
| Cc1ccc(-c2cc(C(F)(F)F)c3c(N)c(C(=O)Nc4cccc(C)c4C)sc3n2)cc1 | Mycobacterium tuberculosis | growth inhibition | H37Rv LepB under-expressing |  |  | IC50 | > 100 µM |
| O=C(c1ccc(OCCN2CCCCC2)cc1)c1c(-c2ccc(O)cc2)sc2cc(O)ccc12 | human coronavirus 229E | viral replication | MRC-5 | 48 h |  | EC50 | 4.5 µM |
| Cc1ccc(OCCc2cc(F)cc(F)c2)c(C(=O)N(C)C)c1 | Mycobacterium tuberculosis | growth | H37Rv-LP | 120 h |  | IC90 | 49 ± 3 µM |
| O=C(O)C1=CC(=C(c2ccc(O)c(C(=O)O)c2)c2ccc(O)c(C(=O)O)c2)C=CC1=O | lymphocytic choriomeningitis virus | reporter gene | BHK-21 | 50 µM, minigenome, Gaussia luciferase | baseline: DMSO | reporter activity | 156% |
| Cn1c(=O)ccc2ccc(F)c(CCNC[C@H]3CN(c4cnc5c(n4)NC(=O)CO5)C(=O)O3)c21 | Burkholderia cepacia |  |  |  |  | MIC90 | 0.5 µg/mL |
| CN(C)Cc1cc2[nH]c(=S)n(Cc3cccnc3)c(=O)c2cc1Cl | Mycobacterium tuberculosis |  | PptT conditional knockdown |  |  | MIC90 | 1.54 µM |
| CC(=O)c1cc(-c2ccsc2)ccc1OCCc1cccc(F)c1 | Mycobacterium tuberculosis |  | H37Rv-LP |  | baseline: HepG2 CC50 over Mtb IC90 | selectivity index | 160 |
| NC(=O)c1ncn([C@@H]2O[C@H](CO)[C@@H](O)[C@H]2O)n1 | human coronavirus 229E | viral replication | Huh-7 |  |  | EC50 | 24.8 ± 7.7 µM |
| Nc1c(C(=O)NCc2ccc(F)cc2)sc2ncccc12 | Mycobacterium tuberculosis | growth inhibition | H37Rv LepB under-expressing |  |  | IC50 | > 100 µM |
| OC(Cn1cncn1)(Cn1cncn1)c1ccc(F)cc1F | Trichophyton rubrum |  | ATCC 28189 | 50% inhibition |  | MIC | 2 µg/mL (≈ 6.53 µM) |
| O=C(NC1COC1)c1cc(-c2ccoc2)ccc1OCCc1cccc(F)c1 | Mycobacterium tuberculosis |  | H37Rv-LP |  | baseline: HepG2 CC50 over Mtb IC90 | selectivity index | 32 |

| SMILES | organism | assay | system | setting | scale | measurement | value |
| --- | --- | --- | --- | --- | --- | --- | --- |
| COc1ccc(-c2cc(C(F)(F)F)c3c(N)c(C(=O)Nc4cccc(C)c4F)sc3n2)cc1 | Mycobacterium tuberculosis |  | H37Rv wild type |  | baseline: HepG2 IC50 over M. tuberculosis IC90 | selectivity index | < 1 |
| Cc1nc(NCCNc2ccnc3cc(Cl)ccc23)nc(-c2ccccc2[N+](=O)[O-])c1C(=O)OC(C)C | parainfluenza virus 3 | viral replication | Vero |  |  | EC50 | > 20 µM |
| CCc1ccc(OCCc2cccc(F)c2)c(C(N)=O)c1 | Mycobacterium tuberculosis |  | H37Rv-LP |  | baseline: HepG2 CC50 over Mtb IC90 | selectivity index | 28 |
| CCOC(=O)c1c(C)nc(NCCCNc2ccnc3cc(Cl)ccc23)nc1-c1ccccc1 | parainfluenza virus 3 | viral replication | Vero |  |  | EC50 | > 20 µM |
| O=C1c2cc(Cl)ccc2NS(=O)(=O)N1Cc1cccnc1 | Mycobacterium tuberculosis |  | PptT conditional knockdown |  |  | MIC90 | > 100 µM |
| COc1ccc(C[C@H]2NC[C@H](O)[C@H]2OC(C)=O)cc1 | human coronavirus 229E | viral replication | luciferase reporter |  |  | IC50 | 0.016 µM |
| O=c1[nH]c2cc(CO)c(Cl)cc2c(=O)n1Cc1cncnc1 | Mycobacterium tuberculosis |  | PptT conditional knockdown |  |  | MIC90 | 7.28 µM |
| O=C(N[C@H](CO)[C@H](O)c1ccc([N+](=O)[O-])cc1)C(Cl)Cl | Burkholderia cepacia |  | 6349 |  |  | MIC | 8 µg/mL (≈ 24.8 µM) |
| O=c1[nH]c2ccc(Cl)cc2c(=O)n1Cc1cccnc1 | Mycobacterium tuberculosis |  | PptT conditional knockdown |  |  | MIC90 | 16.3 µM |
| NC(=O)c1ncn([C@@H]2O[C@H](CO)[C@@H](O)[C@H]2O)n1 | Influenza A virus H1N1 | cytopathic effect, MTS | MDCK |  |  | EC50 | 6.2 µM |
| CC(=O)NCCC(c1cccnc1)n1c(=S)[nH]c2ccc(Cl)cc2c1=O (stereo not shown) | Mycobacterium tuberculosis |  | PptT conditional knockdown |  |  | MIC90 | > 100 µM |
| COCCNC(=O)c1cc(-c2ccoc2)ccc1OCCc1cccc(F)c1 | Mycobacterium tuberculosis | growth | H37Rv-LP | 120 h |  | IC90 | 8.6 ± 0.8 µM |
| O=c1c2cc(Br)ccc2[nH]c(=S)n1Cc1cccnc1 | Mycobacterium tuberculosis |  | PptT conditional knockdown |  |  | MIC90 | 0.84 µM |
| CC(C)[C@H](NC(=O)c1ccccc1NC(=O)c1ccc(O)cc1)C(=O)N[C@H](CO)C(C)C | human coronavirus 229E | viral replication, plaque reduction | MRC-5 | 6 days |  | EC50 | > 50 µM |
| CCC(CC)COC(=O)[C@H](C)N[P@](=O)(OC[C@H]1O[C@@](C#N)(c2ccc3c(N)ncnn23)[C@H](O)[C@@H]1O)Oc1ccccc1 | Influenza A virus H1N1 | ELISA of viral NP | MDCK, A/Puerto Rico/8/34 | concentration not given |  | anti-influenza activity | inactive |
| CC(C)[C@H](NC(=O)[C@H](CCCNC(=N)N)NC(=O)N[C@@H](Cc1ccccc1)C(=O)O)C(=O)N[C@H](C=O)CCCNC(=N)N | human coronavirus 229E | viral replication | Huh-7 |  |  | EC50 | 15.2 ± 0.6 µM |
| Cc1nc(NCCCNc2ccnc3cc(Cl)ccc23)nc(-c2cccc([N+](=O)[O-])c2)c1C(=O)OC(C)C | parainfluenza virus 3 | viral replication | Vero |  |  | EC50 | > 20 µM |
| O=c1c2cc(Cl)ccc2[nH]c(=S)n1CCc1cccnc1 | Mycobacterium tuberculosis |  | PptT conditional knockdown |  |  | MIC90 | > 100 µM |
| COc1ccc(-c2cc(C(F)(F)F)c3c(N)c(C(=O)N4CC(F)(F)C4)sc3n2)cc1 | Mycobacterium tuberculosis | growth inhibition | H37Rv LepB under-expressing |  |  | IC50 | > 100 µM |
| N#Cc1cc2[nH]c(=S)n(Cc3cccnc3)c(=O)c2cc1Cl | Mycobacterium tuberculosis |  | PptT conditional knockdown |  |  | MIC90 | 0.42 µM |
| COc1ccc2cc1Oc1ccc(cc1)C[C@H]1c3cc(c(OC)cc3CCN1C)Oc1c(OC)c(OC)cc3c1[C@H](C2)N(C)CC3 | Influenza A virus | viral replication | MDCK, A/HanFang/359/95 (H3N2) | 48 h |  | IC50 | 4.49 ± 0.84 µM |
